Assay results gathered from unrelated publications.
Parts stem from different laboratories: compare values within a part only. Substitutions count along the parent as printed.

Study 1
Target: Hepatocyte nuclear factor 3-alpha (Foxa1, Mus musculus, UniProt P35582, residues 1-468, full length assumed)
Sequence of UniProt P35582 (whole entry, looked up): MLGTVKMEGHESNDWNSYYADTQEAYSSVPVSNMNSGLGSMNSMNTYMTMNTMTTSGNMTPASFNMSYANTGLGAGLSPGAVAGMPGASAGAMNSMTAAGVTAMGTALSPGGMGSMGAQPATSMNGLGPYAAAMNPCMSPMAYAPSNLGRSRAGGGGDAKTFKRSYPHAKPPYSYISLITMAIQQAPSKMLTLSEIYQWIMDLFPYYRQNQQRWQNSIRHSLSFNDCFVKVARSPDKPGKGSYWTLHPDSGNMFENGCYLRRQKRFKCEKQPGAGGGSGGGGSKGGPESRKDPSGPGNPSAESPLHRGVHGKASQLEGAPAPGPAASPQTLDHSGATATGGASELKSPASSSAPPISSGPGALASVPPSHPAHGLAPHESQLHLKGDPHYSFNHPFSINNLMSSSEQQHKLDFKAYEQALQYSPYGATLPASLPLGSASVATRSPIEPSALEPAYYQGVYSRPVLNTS
Method: EMSA with sequencing
Molecule type: double-stranded DNA, one strand shown
Matrix: in vitro
Concentration: 10 and 20 nM
Setting: whole designed probe, mean of two concentrations, ends assumed
Reference: negative control set to 0
Direction: higher = stronger binding
Oligonucleotide | normalised bound fraction [ratio]
GTGAGCGGTGCCCATTGATGGGGAACATCTTCCCCCTCTTCCTTGCCCCACCAGCTCACCTTCCCGGGTTATTTGCAGATAGGAAAATAAATAAAGCCGGCATTCGTTAACCCTCTTCACGCGCATACTGCTGTTTGCTCTGCATGAATCATGGTCCTTACGCGAGGCGTGGCTCCGGGAGAGCAAAGCACCGTGTCAGGCGCATGATCCGGGGTGGCCTTTCACTGGGATCGTGGGGAC | 0.356
GTGAGCGGTGCCCATTGATGGGGAACGTGTGCTAGCCTGTGAGTTTTTCTCTCCAACTAGCCTGGGTACTCAGGAAAGTGAGATCAACTTCTTTGGGTGTAGCGGGTGGCCTGACCTGTGCAAATAGGGGAGACAGTTGACATACAGATGAAAGGGGAGATGGGAAGCCATACAGAGGAAGGAGAAGATCAGGAACCAGAGATAAGATAATTCTGTAAATTTCACTGGGATCGTGGGGAC | 0.109
GTGAGCGGTGCCCATTGATGGGGAACATCTTCCCCCTCTTCCTTGCCCCACCAGCTCACCTTCCCGGGTTATTTGCACAAAGGAAAATAAATAAAGCCGGCATTCGTTAACCCTCTTCACGCGCATACTGCTGTTTGCTCTGGATGAATCATGGTCCTTTGGCGAGGCGTGGCTCCGGGAGAGCAAAGCACCGTGTCAGGGCCATGATCCGGGGTGGCCTTTCACTGGGATCGTGGGGAC | 0.365
GTGAGCGGTGCCCATTGATGGGGAACGGGTGGGGAAGCAAACATTCAATACTTTGCACCAGTGTAACACCAATTATACTGGATTCATTTAATATGCTTGTCTCCTATTAATTAATATTTGTTTACATTGTCAATGTTTTGAAAGTACTTCATAATCAGTATGATATTTCCTATTACGCCTTCTCCATGTAAAAAATATTTATCCATCTATCTATAAACTTTTCACTGGGATCGTGGGGAC | 0.516

Study 2
Target: OGT, full length, His-tagged (human)
Method: phage display, sequencing
Matrix: in vitro
Concentration: 1 µg OGT
Setting: single substitutions, 15-mer displayed peptide, unchanged parent 5.27
Reference: input library
Direction: higher = stronger binding
Starting sequence: peptide; GDFPVMFMPKYSIIY
Change | fold enrichment [fold]
GDFPVMSMPKYSIIY [F7S] | 0.948
GDDPVMFMPKYSIIY [F3D] | 5.54
GFFPVMFMPKYSIIY [D2F] | 6.14
GDFPSMFMPKYSIIY [V5S] | 8.39
GDFPVMFMPKYSIIM [Y15M] | 2.58
GDFPVMFMPQYSIIY [K10Q] | 2.53
GDFPVMFTPKYSIIY [M8T] | 1.22
GDFPVMFMPKYSIII [Y15I] | 4.87
GDFPVMDMPKYSIIY [F7D] | 1.42
GDFPVEFMPKYSIIY [M6E] | 3.38
GDFPVMFMGKYSIIY [P9G] | 0.11
GYFPVMFMPKYSIIY [D2Y] | 6.15
GDFPVMMMPKYSIIY [F7M] | 1.19
GEFPVMFMPKYSIIY [D2E] | 3.75
GDIPVMFMPKYSIIY [F3I] | 5.44
GDFPVMFMPKISIIY [Y11I] | 6.19
GDFEVMFMPKYSIIY [P4E] | 10.8
GDFPVMFMPSYSIIY [K10S] | 1.25
GDFPVMFMPKASIIY [Y11A] | 1.81
GDFPVMFMPKWSIIY [Y11W] | 1.43
GDFPVMFMPKYSIID [Y15D] | 0.989

Study 3
Target: BATF3, bZIP domain (human)
Method: DHFR protein complementation
Matrix: yeast
Setting: single substitutions, most at no-binding floor
Reference: wild-type JUN-FOS pair
Direction: higher = stronger binding
Starting sequence: JUN, bZIP domain (human); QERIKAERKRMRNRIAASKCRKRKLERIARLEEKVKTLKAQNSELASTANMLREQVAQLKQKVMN; partner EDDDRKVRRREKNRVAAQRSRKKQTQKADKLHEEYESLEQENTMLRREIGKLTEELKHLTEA
Change | binding fitness [natural log]
E32N | 0.0561
E54S | 0.136
A57S | 0.209
M51H | 0.237
L45A | -0.0514
R53A | 0.155
L59P | -0.594
E54G | 0.275
R30P | 0.351
E32D | 0.285
V56D | -0.778
A40D | 0.212
Q55H | 0.228
R53D | -0.247
A49H | 0.0814
A57L | 0.107
M51F | 0.161
L52N | -1.31
T37G | 0.246
A49V | 0.198

Study 4
Target: CCNB2, cyclin fold, Cln2 fusion (human)
Method: yeast growth competition, sequencing
Matrix: yeast
Setting: weak parent motif
Reference: not given
Direction: higher = stronger binding
Starting sequence: CDC25A docking peptide (human); PPHRRRLLFACSP; partner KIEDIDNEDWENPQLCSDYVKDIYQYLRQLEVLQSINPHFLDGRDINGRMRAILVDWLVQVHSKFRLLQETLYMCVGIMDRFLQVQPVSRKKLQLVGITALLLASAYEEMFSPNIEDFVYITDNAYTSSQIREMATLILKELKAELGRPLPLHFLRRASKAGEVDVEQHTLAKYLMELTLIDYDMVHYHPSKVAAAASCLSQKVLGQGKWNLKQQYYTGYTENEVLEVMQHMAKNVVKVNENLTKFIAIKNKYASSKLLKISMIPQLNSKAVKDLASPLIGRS
Change | normalised enrichment score
P2H | 0.758
S12I | 0.74
R6D | 0.288
P2C | 0.96
L8C | 0.652
P13I | 0.449
L7I | 0.64
P1S | 0.324
F9M | 0.375
A10I | -0.221
A10W | 0.346
R5K | 0.8
L7Y | 0.696
R6Q | 0.619
L8S | -0.013
L7M | 0.536
F9S | 0.946

Study 5
Molecule: Histone H2B type 1-C/E/F/G/I (Homo sapiens, UniProt P62807)
Method: cross-linking MS
Setting: hits only
partner | interaction screen
H2AC25 (Homo sapiens, UniProt Q7L7L0) | cross-linked
H3-4 (Homo sapiens, UniProt Q16695) | cross-linked
H2AC18 (Homo sapiens, UniProt Q6FI13) | cross-linked
RCC2 (Homo sapiens, UniProt Q9P258) | cross-linked
SEPTIN1 (Homo sapiens, UniProt Q8WYJ6) | cross-linked
H2AC6 (Homo sapiens, UniProt Q93077) | cross-linked

Study 6
Target: ABI1, truncated, D143A, DHFR fusion (Arabidopsis thaliana)
Method: DHFR PCA, deep sequencing
Matrix: yeast
Setting: methotrexate growth selection, single substitutions
Added: (+)-ABA 2500 µM
Reference: wild-type fitted maximum
Direction: higher = stronger binding
Starting sequence: PYL1, truncated, DHFR fusion (Arabidopsis thaliana); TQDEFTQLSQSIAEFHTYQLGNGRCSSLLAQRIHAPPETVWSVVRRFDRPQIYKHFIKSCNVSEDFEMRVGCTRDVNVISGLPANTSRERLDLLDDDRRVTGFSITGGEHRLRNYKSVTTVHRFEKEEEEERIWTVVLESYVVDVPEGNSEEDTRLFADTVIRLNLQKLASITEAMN
Change | relative binding score [%]
L8I | 103
Y141N | -2.98
L82W | 81.6
G102A | 98
R45H | 75.8
G23F | 92.3
P83L | 23.7
S80V | 61.1
S42N | 110
F103Y | 103
T101Y | 91.3
L156C | 95
T106D | 99

Study 7
Target: Sal-like protein 4, full length isoform B (SALL4, Homo sapiens, UniProt Q9UJQ4-2, residues 1-616)
Method: universal PBM
Molecule type: double-stranded DNA, one strand shown
Matrix: in vitro
Concentration: not given
Setting: 8-mer, flanks averaged, mean of replicates
Direction: higher = stronger binding
Target sequence (chain): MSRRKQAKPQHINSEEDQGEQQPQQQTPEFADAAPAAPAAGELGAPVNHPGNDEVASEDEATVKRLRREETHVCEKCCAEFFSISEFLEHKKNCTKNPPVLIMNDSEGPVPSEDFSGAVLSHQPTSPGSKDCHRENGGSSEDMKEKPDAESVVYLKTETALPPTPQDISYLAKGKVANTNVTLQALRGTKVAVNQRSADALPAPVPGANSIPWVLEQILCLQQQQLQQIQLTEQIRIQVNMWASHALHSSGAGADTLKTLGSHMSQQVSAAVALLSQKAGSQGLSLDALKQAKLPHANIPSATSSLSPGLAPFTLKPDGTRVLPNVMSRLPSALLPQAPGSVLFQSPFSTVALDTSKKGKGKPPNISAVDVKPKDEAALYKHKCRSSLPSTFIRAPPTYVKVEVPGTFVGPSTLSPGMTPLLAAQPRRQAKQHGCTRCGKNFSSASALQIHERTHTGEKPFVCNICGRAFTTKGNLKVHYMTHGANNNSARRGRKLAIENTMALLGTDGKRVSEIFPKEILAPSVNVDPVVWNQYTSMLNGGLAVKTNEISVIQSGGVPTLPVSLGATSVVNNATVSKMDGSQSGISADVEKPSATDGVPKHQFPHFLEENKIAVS
Oligonucleotide | E-score
GGACCACA | -0.155
AAGCTAAG | -0.143
CGCGTAGC | -0.241
AAATAGAT | 0.286
AATGGAGT | 0.106
AGGCCCAT | -0.271
CGAGCGCC | -0.427
AGAACTAG | -0.0352
GATCTTGC | 0.0888
CACATGGC | -0.0869
ACTGACAA | -0.00821
ATTACTGC | 0.197
GCTGGACA | -0.122
GGCTTTTA | 0.0193
AGAGTACG | -0.103
AAAGAAGC | 0.0381
CCTTTACG | 0.104
CCCGAAGC | -0.188
ACAAACTG | -0.115
GAACTTTA | 0.0859
AAGTCAGG | -0.14
CAGGCCCG | -0.317
GATAGTCA | 0.0785
CGATGGTC | -0.122
CTCTGCGA | -0.0712

Single results of other studies
Molecule | target | test | test system | conditions | scale | measurement | value
PhoQ, residues 284 288 289 292 302 303 SSTMSV | PhoP, residues 12 14 15 18 19 DLLYY (Escherichia coli, UniProt P23836) | Sort-seq, measured: YFP reporter | E. coli | PhoQ-PhoP variant library, added: 10 µM Mg2+ | reference: high Mg2+ state, higher = stronger signaling | fold induction | 3.42

Repeated from above (study 4):
Change | normalised enrichment score
L8C | 0.652
P2H | 0.758
R5K | 0.8
L7Y | 0.696
F9M | 0.375
L7M | 0.536
L8S | -0.013
L7I | 0.64
A10I | -0.221
